Assay results collected from several papers.
Numbered parts are unrelated; each lists some results of a single study. Substitutions count along the parent as printed.

Series 1
Target: RING finger protein unkempt homolog, zinc fingers 1-6, SBP tag (UNK, Homo sapiens, UniProt Q9C0B0, residues 30-357)
Sequence of UniProt Q9C0B0 (30-357, looked up): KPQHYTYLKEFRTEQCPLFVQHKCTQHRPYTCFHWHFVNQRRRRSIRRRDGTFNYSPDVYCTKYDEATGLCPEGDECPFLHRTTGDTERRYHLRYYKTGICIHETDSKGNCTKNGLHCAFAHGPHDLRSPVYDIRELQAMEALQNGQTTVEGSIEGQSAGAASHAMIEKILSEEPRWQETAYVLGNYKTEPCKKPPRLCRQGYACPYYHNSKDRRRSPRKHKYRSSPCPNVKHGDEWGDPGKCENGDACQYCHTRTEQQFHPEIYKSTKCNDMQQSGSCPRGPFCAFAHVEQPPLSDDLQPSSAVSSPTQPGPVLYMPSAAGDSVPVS
Method: RNA Bind-n-Seq
Form: RNA
Matrix: in vitro
Tested at: 100 nM
Notes: RNA with constant flanks, vertebrate orthologous sites, ends assumed
Baseline: input RNA pool
Reading: higher = stronger binding
Constant ends, left off below: GGGAGUUCUACAGUCCGACGAUC … CAACAGAGGAUUGAGCAUCA
Oligonucleotide	bound/input enrichment [ratio]
CAGCGGAUUCACUAAUUGGAAGAGCUGCACAUAUAGCUGUUCUUGAUUCAGAAAUAUUUUUAGAAAAAUUCUUUUUAGUUGCUGCCCUCAAAUACUUCCAGUAGGAUAAAAACAUUGCUA	1.52
UAUAAUUAUGAAAAUCUAAAGGAUUUUUAAUGUUUAAUUUCCCCCAGCAUAUAUAUUAAGACCUCUUUUUUCCAGGCAGAUCAUUCAGAGUGUGCGAGUGUGUGUGCACAUGUUACAAAG	0.891
GGACAAAAACGUUUUCACUGGGUUUUGCCUGUAAGAAAACAAUGUACCCGAGCACACACAUAGAGCUUUUUAAUAGCACUAACCAAUGCCUUUUUAGAUGUAUUUUUGAUGUAUAUAUCU	0.748
CAGAAAGGCCAAAUCCCCUCUACCCUUCUACUGCUUCUACCAACUGGAAGCACAGAAAACUAGAAUUUCAUUUAUUUUGUUUUUAAAAAUAUACGUUGAUUUCUUGUAACAUCCAAUAGG	0.568
AGUUUGUAUGUACAUUAUUCACAUUCCUCUCUGUUGUGUUUGGGGGAAAGAAAGACAUUUUAGCCUUUUUUAAAGGUUAUUGAUUUAAUUUCAUGUUAUUUGGUUGCAUGAAGUUGCCCU	0.403
GGGACGCUUUGACAUAAAGCUCACCGUGUCGUGACCUGAGCUACUGCGAGCACUCAAUUUGAAAACGAAUCCAACUUAGAGAAACCCGUUCAGAUAAAAACCACCACUAGUCUUUGAACA	0.172
UUGAAAACUACUGUGUGAAACAUGUCUAUCCAGAGAAAUAACAUUCUAAAAAUAACAAUUUAGCUACAGUCUUUUAAAGUACUGAAUUGUAUGUCAAGAAAUUAAAGUGAAUUUGAGAUA	0.323
UACAAUAAUGAAAACCUACUAGGAAUUUUUUUAUUUUUCCAUUUUCCCCUUAGGCAUACUUAGUCUCUUUUUUUCCCUAGGCAGAUCAUUCUGAGUGUGCGAGUGUGUGUGCACAUGUUA	4.29
ACCUUAAAUAGAUGGUAGUAUAUGUUUCAUAAAGAAGUCUUUAUAAUUUUGUUUGGCAUACAGUAUUUUGGAAUUUGUAUAAUGAGGAUGUUUAGAAGCCACAUACAUGGCUUUUUUUAA	0.66
GAUUUGGACCUUGGAGUUGAACCAGGGAGCUAGCAAAAGUAAAGCAGACUUGUAAAAUUAUAGCUAUAUGCAGCUGCACAACACAGUCCUACCACUAGCAGCUGUGUUAAAGUAUUUAUA	0.682
GAGCUAAAGGAGUUAGCGUCUUUAUUUUUGUAUCAAAGAUAAAGGUUAUUUUGAAAUUCCUAGGGUUUUUACACAACUCCGAAAUCUGUUGCUUUUGUAAACAAAUUGUUUGCCCUUAGG	0.408

Series 2
Target: Centromere-binding protein 1, full length, His-tagged (CBF1, Saccharomyces cerevisiae, UniProt P17106, residues 1-351)
Sequence of UniProt P17106 (whole entry, looked up): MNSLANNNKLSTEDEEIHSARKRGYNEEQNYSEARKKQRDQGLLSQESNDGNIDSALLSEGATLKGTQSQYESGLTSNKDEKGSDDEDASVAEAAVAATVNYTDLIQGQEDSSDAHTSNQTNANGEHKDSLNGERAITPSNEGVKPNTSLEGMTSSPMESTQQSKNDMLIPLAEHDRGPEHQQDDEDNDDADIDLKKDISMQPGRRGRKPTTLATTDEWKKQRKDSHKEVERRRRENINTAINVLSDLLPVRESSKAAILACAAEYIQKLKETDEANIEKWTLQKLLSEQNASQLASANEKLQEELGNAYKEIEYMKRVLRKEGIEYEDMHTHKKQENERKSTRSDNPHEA
Method: competition protein-binding microarray
Form: double-stranded DNA, one strand shown
Matrix: in vitro
Tested at: 2 µM
Notes: whole 60-bp probe, lowest competitor level
Added: Pho4 competitor, 0.05 µM
Reading: higher = stronger binding
Constant ends, left off below: … GTCTTGATTCGCTTGACGCTGCTG
Oligonucleotide	fluorescence intensity [a.u.]
TGTCAATGTCGCCGTCACATGGGAAGAAAGGTGGGA	460
CTTTCCCGATCTTGCCACGTGGGTGTAGCACATTTG	876
CTTCTGTAAATTTGTCATGTGGGTGGACGCGCCCCG	159
AAAGCGGTAATTTGATCGGTGGGTGCAGATATCTAT	89.4
AAATTACTAAGTTGCGGGGTGGGTGACGCCGTATGA	79.7
TAACTAATCAAATGTATCGTGACGGGGTGTTGCATC	132
CTTCTGTAAATTTTTCACGTGCGCTGACGCGCCCCG	966
AAAATGGAAAAGTTACACGTGGAAGATACAACAACC	642
CTAACGAAGGTTTGAAATGTGGGTGACAAGCCAAGT	79.4
AAAGCGGTAATTTGTCACGTAACTTCACATATCTAT	149
CGGGGTTAAGTTTGCTACGTGGGTGGCTTGCAGCAG	71.7
AGAAAAACCAGCCATCGCGTGTGTTTGGAGAGCTGA	49.8
ATAAATCGTTGGAGTGACCTGGCGTTGGGGTAATTC	85
AATGAGCAAAACTGGCACGATCCTGAAAAGAGCACT	72.5
TACTTGGTAAGTACCCACGCAGCCAATAGTGTCTCG	53.9
CGGGGTTAAGTTTGGCCTGTGGGTGGCTTGCAGCAG	53.2
GTTTAGAATCCCCATCACGTACGAGTTGAAGAATTC	103
ACTTGAGTCAAAAGGCATGTGCGCCTCTTGTTATCT	101
AAATTACTAAGTTGGCCAGTGGGTGACGCCGTATGA	62.1
GCCAAGCAGCGTCCGCACGTTGGAACTTTTTCGCCG	70
GTCCCCAGCGTACAAACCGTGACGGTTACCGAAAGC	66.5

Series 3
Target: ABI1, truncated, D143A, DHFR fusion (Arabidopsis thaliana)
Method: DHFR PCA, deep sequencing
Matrix: yeast
Notes: methotrexate growth selection, single substitutions
Added: (+)-ABA 0 µM
Baseline: wild-type fitted maximum
Reading: higher = stronger binding
Parent: PYL1, truncated, DHFR fusion (Arabidopsis thaliana); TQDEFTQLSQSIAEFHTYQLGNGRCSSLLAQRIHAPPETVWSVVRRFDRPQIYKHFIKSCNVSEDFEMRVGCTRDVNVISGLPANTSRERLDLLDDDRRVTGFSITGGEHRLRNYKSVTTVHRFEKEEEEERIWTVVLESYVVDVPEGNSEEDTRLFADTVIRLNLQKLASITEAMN
Change	relative binding score
G71C	1.64%
I79E	12.4%
V62M	4.71%
K126Y	17.8%
T1S	27.6%
T73H	23.7%
E174W	-4.27%
S171R	42.6%
S87F	31.3%
G71L	0.899%
N149I	37.3%
F15M	-2.41%
T154Q	-3.93%
I172Y	-7.36%

Series 4
Target: RNA binding protein fox-1 homolog 2, RRM domain, GST-SBP tag (RBFOX2, Homo sapiens, UniProt O43251-10, residues 100-194)
Method: RNA Bind-n-Seq
Form: RNA
Matrix: in vitro
Tested at: 365 nM
Notes: natural RNA segment, single round, ends assumed
Baseline: no-protein control
Reading: higher = stronger binding
Constant ends, left off below: GGGAGUUCUACAGUCCGACGAUC … UGGAAUUCUCGGGUGCCAA
Residues (chain): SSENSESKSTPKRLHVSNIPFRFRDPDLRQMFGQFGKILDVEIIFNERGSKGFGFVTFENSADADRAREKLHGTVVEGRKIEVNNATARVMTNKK
Oligonucleotide	RBNS enrichment (R)
UUGUACAUCACACAGCCAUUUUUAUAUAAGGACACUUUUAAUAAGCUAUUUCAAAUUUGGUUUUGUUACAUUAAGUUGACUAUCAAAUACACAAAAGAUUUUUUUUGCAU	0.485
GAGGAAAGAUAAGCUCUUCGUGGUGCCCACGAUGCUCAGGUUUGGUAACCCGGGAGUGUUCCCAGGUGGCCUUAGAAAGCAAAGCUUGUAACUGGCAAGGGAUGAUGUCA	0.772
GUAUCUUUACUUGAAAGUUGGGAGUCCUUGUUUAAUUUAGGUCUGUCUUCUUGUGUGACUGUUUCUGUAUGAAGUAUAAAAAUUUGUGUGCCUUGAGCAAGUCUCAUUUU	0.929
UUCCACAUCGAUCCUUGCCCUCUUCAGGCAGUACUUCAGGGCCCUCACCAGGACCCCUUAUGUAGUGUGCUAUCCUCUAAACUCCUAAGCUAAGUCACCCUGGUGUCAUU	0.453
ACUUUUGAGGCACUUUUCAAAUUUAAUAAGGAACCAUGUAAGGGUAGCAGCCCCUCCCUAAAGCAUUCUGAGGUAAGGAGGUAUCCAUUCUUCAAAUGAAUGUGAGUGAA	5.11
UGUUUAACAUGGAGUCUCACUCUAGUCCAGACUGGCCUCAAGCUCAUGGUUAACUCUCCUGCUAUAACCUCCUGGGUUACAGUCAUACAUUACGGUGCCCAGAUUCAAAA	0.179
ACAUGGGGGGGCCCCUGGGCCUGGGGUGCCCUCCCGAUCUCCUCGUCCCGUAUUUCUCCAUCUCCAGUUCUGGACAGUGCAGGUUGCCAAGAAAAGGGACCUAGCUUAGC	0.605
ACAGGACAGAAGCGGCCUUUGAAGAACGACGAACUAUAACCCCCACCUCUGUUUUCCCCAUUCAUCUCCACCCCCUUCCCCCACCACUUCUAUUUAUUUAACAUCGAGGG	1.02
GUUCACCCUUGAAAACGUUAAUCUGAGGACUUUUUCCACCAACUCAUUAAUGAUGGUGGAAGCAAGUGUAUUAUUUGUUUCCUGGAGAAUUUGAUGAAGAGCAGUCUUCC	0.285
GGUGAAGGUUUUCUUUCAGUUAGGGUACUUGGCAAGGUCCAUUCUAGUGUAGCUGAAGAGGAAGCUAUACUAUUUUCUGUUUACUGUAUUUUGCUCCCUAUUUUAUGCUU	0.637
UCCAGGUGCACAGAGAGCCCUGCCACCGUCUUACCUCUGGGCUUUGGUGCUUAACACACAACACAGCUGCAGACCCUGCUGGAGGCCGAGGGCUCCAGGUGCUAUCUUAG	0.342
CCCUCUCUAUUACCACAUUUUCUCUUAUUAACAGUAUCUCAGAAUAAUUUUCUUUCCUUAGAAACCUGAGAGAAUGCUAGUCAUAACUGUACUAGUUACUAUGAAAAUGG	0.44

For quick reference, copied from above (series 1):
Oligonucleotide	bound/input enrichment [ratio]
CAGCGGAUUCACUAAUUGGAAGAGCUGCACAUAUAGCUGUUCUUGAUUCAGAAAUAUUUUUAGAAAAAUUCUUUUUAGUUGCUGCCCUCAAAUACUUCCAGUAGGAUAAAAACAUUGCUA	1.52
UAUAAUUAUGAAAAUCUAAAGGAUUUUUAAUGUUUAAUUUCCCCCAGCAUAUAUAUUAAGACCUCUUUUUUCCAGGCAGAUCAUUCAGAGUGUGCGAGUGUGUGUGCACAUGUUACAAAG	0.891
GGACAAAAACGUUUUCACUGGGUUUUGCCUGUAAGAAAACAAUGUACCCGAGCACACACAUAGAGCUUUUUAAUAGCACUAACCAAUGCCUUUUUAGAUGUAUUUUUGAUGUAUAUAUCU	0.748
CAGAAAGGCCAAAUCCCCUCUACCCUUCUACUGCUUCUACCAACUGGAAGCACAGAAAACUAGAAUUUCAUUUAUUUUGUUUUUAAAAAUAUACGUUGAUUUCUUGUAACAUCCAAUAGG	0.568
AGUUUGUAUGUACAUUAUUCACAUUCCUCUCUGUUGUGUUUGGGGGAAAGAAAGACAUUUUAGCCUUUUUUAAAGGUUAUUGAUUUAAUUUCAUGUUAUUUGGUUGCAUGAAGUUGCCCU	0.403
GGGACGCUUUGACAUAAAGCUCACCGUGUCGUGACCUGAGCUACUGCGAGCACUCAAUUUGAAAACGAAUCCAACUUAGAGAAACCCGUUCAGAUAAAAACCACCACUAGUCUUUGAACA	0.172
UUGAAAACUACUGUGUGAAACAUGUCUAUCCAGAGAAAUAACAUUCUAAAAAUAACAAUUUAGCUACAGUCUUUUAAAGUACUGAAUUGUAUGUCAAGAAAUUAAAGUGAAUUUGAGAUA	0.323
UACAAUAAUGAAAACCUACUAGGAAUUUUUUUAUUUUUCCAUUUUCCCCUUAGGCAUACUUAGUCUCUUUUUUUCCCUAGGCAGAUCAUUCUGAGUGUGCGAGUGUGUGUGCACAUGUUA	4.29
ACCUUAAAUAGAUGGUAGUAUAUGUUUCAUAAAGAAGUCUUUAUAAUUUUGUUUGGCAUACAGUAUUUUGGAAUUUGUAUAAUGAGGAUGUUUAGAAGCCACAUACAUGGCUUUUUUUAA	0.66
